# Measured values of several laboratories.
# Lines come from different studies, so protocols differ. ± marks the error that the study gave.
# Chain of UniProt Q9H2X6 (whole entry, looked up): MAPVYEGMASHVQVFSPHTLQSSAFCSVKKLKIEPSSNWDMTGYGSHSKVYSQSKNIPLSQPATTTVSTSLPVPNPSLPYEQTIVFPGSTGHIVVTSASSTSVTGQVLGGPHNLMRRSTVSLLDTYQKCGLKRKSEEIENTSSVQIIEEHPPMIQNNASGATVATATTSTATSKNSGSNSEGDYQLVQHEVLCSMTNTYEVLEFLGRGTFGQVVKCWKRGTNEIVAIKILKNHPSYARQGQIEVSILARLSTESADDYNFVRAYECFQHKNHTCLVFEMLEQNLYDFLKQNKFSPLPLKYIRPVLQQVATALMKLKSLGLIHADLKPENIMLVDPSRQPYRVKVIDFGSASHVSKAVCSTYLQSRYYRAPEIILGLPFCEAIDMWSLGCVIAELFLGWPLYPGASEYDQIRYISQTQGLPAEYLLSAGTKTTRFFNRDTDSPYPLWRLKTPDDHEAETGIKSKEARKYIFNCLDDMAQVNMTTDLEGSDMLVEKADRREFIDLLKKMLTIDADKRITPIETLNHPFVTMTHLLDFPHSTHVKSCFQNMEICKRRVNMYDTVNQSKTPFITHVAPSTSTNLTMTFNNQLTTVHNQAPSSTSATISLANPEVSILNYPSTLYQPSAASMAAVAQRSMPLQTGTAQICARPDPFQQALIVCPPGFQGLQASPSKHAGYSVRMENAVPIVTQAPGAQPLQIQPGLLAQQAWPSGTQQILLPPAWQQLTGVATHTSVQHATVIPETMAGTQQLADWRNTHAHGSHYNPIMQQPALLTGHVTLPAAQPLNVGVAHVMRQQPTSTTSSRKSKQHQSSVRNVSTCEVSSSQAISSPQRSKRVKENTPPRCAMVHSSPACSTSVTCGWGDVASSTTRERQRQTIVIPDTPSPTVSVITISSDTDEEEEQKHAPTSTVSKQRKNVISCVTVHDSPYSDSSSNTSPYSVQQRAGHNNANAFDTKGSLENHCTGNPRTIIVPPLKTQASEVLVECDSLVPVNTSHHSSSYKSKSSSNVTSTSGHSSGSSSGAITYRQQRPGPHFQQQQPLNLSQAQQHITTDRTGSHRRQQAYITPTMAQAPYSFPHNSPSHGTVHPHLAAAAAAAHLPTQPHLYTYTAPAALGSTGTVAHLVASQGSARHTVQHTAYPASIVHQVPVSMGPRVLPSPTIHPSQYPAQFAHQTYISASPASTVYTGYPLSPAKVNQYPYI
SMILES,tested on,assay,test system,conditions,measurement,result
Cc1ccc(N=Nc2c(N)nn3c(-c4ccco4)cc(-c4ccc(OCc5ccccc5)cc4)nc23)cc1,Bacillus pumilus,broth microdilution,MTCC 2296,,MBC,31.3 µg/mL
COc1cc(/C=N/NC(=S)NN=Cc2cccs2)ccc1Oc1ccnc2cc(Cl)ccc12,human lysosomal acid alpha-glucosidase,inhibitor,,with: pNPG substrate,IC50,9.97 ± 0.08 µg/mL
O=C(Nc1cc(-c2ccc(Cl)cc2)[nH]n1)C1CCCCC1,"HIPK2 (Homo sapiens, UniProt Q9H2X6)","enzyme activity, Dundee kinase panel",,10 µM,remaining activity,89%
CCOc1c([C@H](C)n2nc(C)c3c(N)ncnc32)cc(Cl)c(F)c1[C@@H]1CNC(=O)C1,,,"human patients, Hodgkin lymphoma, plasma","oral, 30 mg, day 15, monotherapy",half-life,10.4 ± 3 h
